Measurements collected from several papers.
Every numbered part comes from another study and shows a few of its results, in no order. Positions count from the first letter of the parent shown.

Block 1
Target: PABPC1L2, full length, GST fusion (mouse, UniProt A0ABA7IW68)
Method: RNAcompete
Form: RNA
Sample: in vitro
Tested at: 20 nM
Setting: 7-mer, probes averaged, single round
Baseline: mean of 7-mers
Reading: higher = stronger binding
Construct (chain): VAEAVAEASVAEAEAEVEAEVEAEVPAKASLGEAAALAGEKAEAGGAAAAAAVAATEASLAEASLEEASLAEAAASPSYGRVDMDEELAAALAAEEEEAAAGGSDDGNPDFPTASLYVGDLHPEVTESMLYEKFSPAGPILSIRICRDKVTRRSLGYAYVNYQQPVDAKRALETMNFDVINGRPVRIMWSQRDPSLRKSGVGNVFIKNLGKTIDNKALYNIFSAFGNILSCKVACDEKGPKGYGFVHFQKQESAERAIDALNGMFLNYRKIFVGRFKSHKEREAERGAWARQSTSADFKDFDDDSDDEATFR
Strand	7-mer Z-score
ACUACAG	0.0207
AGAGACA	0.175
AAGGGUA	0.365
UAGGACG	0.177
AUUACAC	-0.166
CACGCUC	-0.246
CUUGCCA	-0.199
UCAGAGG	0.0424
UGUUAAA	0.423
GUAGCAC	-0.0989
CCCUGGG	-0.416
GUACCGG	-0.173
CUGCGUU	-0.364
GGCACCC	-0.213
CUGGGGU	-0.0772
AGCCCUU	-0.0591
UCAAGUC	-0.313

Block 2
Target: RNA binding protein fox-1 homolog 2, RRM domain, GST-SBP tag (RBFOX2, Homo sapiens, UniProt O43251-10, residues 100-194)
Method: RNA Bind-n-Seq
Form: RNA
Sample: in vitro
Tested at: 365 nM
Setting: natural RNA segment, single round, ends assumed
Baseline: no-protein control
Reading: higher = stronger binding
All sequences stand within: GGGAGUUCUACAGUCCGACGAUC … UGGAAUUCUCGGGUGCCAA
Residues (chain): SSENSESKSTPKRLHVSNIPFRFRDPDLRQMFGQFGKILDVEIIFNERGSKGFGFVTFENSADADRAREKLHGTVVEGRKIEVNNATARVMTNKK
Strand	RBNS enrichment (R)
CUGAGUAUGCAUUGAACAGUGGGGAUAUUAUAAACAGAAGCGCCUCUCUGAAGAACCCGGUUUCCGGUGUUGAGUGAUAGACUGGUUUGAGCGAGUACUGUUUUGUGGUG	7.23
ACAGAGGAAGCUCAGGCACAGAGGACGAGGAGCAAGCUGGCGCCGACAUGGCGAAGGCAAGGUCUUCCCCCAGAGGCACAUUCCUCUCCAUCUUUCCACCGCACACCUGG	0.382
GGUAGGCCUUGGAGGGAAAUCUGUAGGGGUGGGGACCUUCCUACCUUCCUGGCUUGAGAACAGCCCUGCUACCCUUUUUGAGCCGAAAUUUUGAAGUGGAUGCCCGUCUU	2.05
AGGCCCCCAUAUACUCUGCUACAGCUCCUAUCAUGAAAAAUAAAAUGUUUGUCUUUGCAAAACAGUAGUUCUGAGGCAGUCAGGGCUGUGCCCUUGGAAAUGGAGACCUG	0.628
UGGGAGCUGGCUGCCCCACCCACACUCUCCAUCCCAUUCAAGACUGUGCCAUACCAGCUGAUCUGUAGGCCUUUUCUAUGAGUCCUACUCCAUCAGGGUUUCUGCUGUUA	0.27
GGUCCAGGACUCAGCUUUCUGCUUCAGCCUAAGCCAGUACUCCUUGUUUGAGGUAAAAGCCUUAAAAUUUAGCUCCCUAGCUCUUGAUUAGAAGCAAUUUGGAGUAAGUG	0.255
CUCUUCCAUGGUGCCGGCCAGAUUUGGGGACGGAGCACCAUUGUCCCUGUGGGGCUCAAUGUGGUGUCGCCUCUCUGGGCUGAGUGACUUGAUUUGACCAGCAUGCACUC	2.59
UACUUUGAUAAAGCGUGUGCUUAAAGUGGUAUCACCAGUGAUUUCUAACAUGAUUUUAAAAAAAUAAAACCCCAAUUAAAAUGUUCUUUAAUAUUCAUUUAAUUUGUGCA	7.49
CGAUUUGCCAUCGAAAGACGACCUCUACUUUUUUCUUUUGUAUUUUGAUAAACACUGAAGAAGCUGGAGCUGUUAAAUUUAUCUUGGGGAAAUCUCAGAACUGGUUUAUU	0.452
UGCUAUGUGCAGGCAGGCAGGGGUUAUCUUCCUGGGUCUCACAGACUUUCAUGGUUUUCCUUACCCCUUCUUUUCUUUUUCUUCCUCAUUUUGUUCCUUCAUAGGAAAAA	0.445
GCAGUGUCGCCAUGACUGAUCAUGGCUCUUGCAUUUUUGGGUAAAUGGAGACUUCCGGAUCCUGUCAGGGUGUCCCCCAUGCCUGGAAGAGGAGCUGGUGGCUGCCAGCC	0.267
GAAAUCAACUUUAGAGCUUUGCUUUUCUCUGAGUUCAUCCUGCAGUGAAUGACAGGUACUGACAGCCCAACAUUAAGGUGCAAAUAGCCUGUUUGUCAUAUCAGAAGCCA	0.326

Block 3
Target: ABI1, truncated, D143A, DHFR fusion (Arabidopsis thaliana)
Method: DHFR PCA, deep sequencing
Sample: yeast
Setting: methotrexate growth selection, single substitutions
Together with: (+)-ABA 1.4 µM
Baseline: wild-type fitted maximum
Reading: higher = stronger binding
Starting sequence: PYL1, truncated, DHFR fusion (Arabidopsis thaliana); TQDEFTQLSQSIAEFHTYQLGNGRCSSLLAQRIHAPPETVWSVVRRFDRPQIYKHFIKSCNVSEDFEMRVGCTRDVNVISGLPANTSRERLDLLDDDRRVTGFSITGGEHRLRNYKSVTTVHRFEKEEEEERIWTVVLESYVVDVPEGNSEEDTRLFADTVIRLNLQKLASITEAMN; partner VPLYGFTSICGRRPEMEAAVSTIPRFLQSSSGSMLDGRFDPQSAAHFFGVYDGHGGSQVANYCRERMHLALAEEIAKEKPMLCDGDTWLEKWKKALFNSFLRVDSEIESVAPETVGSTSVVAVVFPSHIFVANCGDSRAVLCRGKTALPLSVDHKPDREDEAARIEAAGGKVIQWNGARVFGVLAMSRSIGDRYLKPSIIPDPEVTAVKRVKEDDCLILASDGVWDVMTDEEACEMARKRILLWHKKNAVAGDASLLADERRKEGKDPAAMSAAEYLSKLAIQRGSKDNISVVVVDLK
Variant	relative binding score [%]
E139W	34.8
I57G	-2.33
A13S	43.6
S80H	13.6
R132F	48.5
T17K	11.3
N22E	69.3
E174C	6.7
S140K	1.96
G81A	2.35
I162E	6.06
M68F	32.3
F157V	10.6
D144I	-25.2
V137P	-1.9
D75P	-3.01
S59I	-0.122
G71A	-1.26
I12C	19.1
E127V	55.3
Q51F	11.1
G107D	30.7
P50R	-0.593
S27E	-2.13
D48G	3.68

Block 4
Target: Histone acetyltransferase KAT6A, winged helix 1, GST fusion (KAT6A, Homo sapiens, UniProt Q92794, residues 1-85)
Method: protein binding microarray
Form: double-stranded DNA, one strand shown
Sample: in vitro
Tested at: not given
Setting: 8-mer, flanks averaged, mean of 2 arrays, mostly near background
Baseline: not given
Reading: higher = stronger binding
Construct (chain): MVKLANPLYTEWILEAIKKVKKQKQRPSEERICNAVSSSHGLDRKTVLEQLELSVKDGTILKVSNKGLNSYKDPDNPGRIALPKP
Strand	E-score
GAGGCACC	0.101
AGTATCGC	0.0619
AAAGTCAG	-0.00426
CCGGGACA	0.26
GATATCGA	-0.237
TAGCACCA	-0.194
TCTGTCAA	-0.241
AGTACAGA	-0.0236
AGTCTTAT	-0.11
CGGTGCGC	0.387
CTAAGGCC	0.0929
GATCTTCC	-0.024
CCAACGCC	0.115
ATCGGCCC	0.307
CACTGCAC	-0.133
ACGAGATA	-0.235
AGTTTATC	-0.0885
AGTAGCTC	-0.0359
CGAGTATA	-0.137
CTTTTGAA	-0.0905
AGAGGCAA	-0.323
TGTTTTAA	-0.129
CAGACTCA	-0.191
CTGGAGGC	-0.0322
AATTAACA	-0.182

Block 5
Organism: Saccharomyces cerevisiae
Observed: binding
Method: yeast competitive growth sequencing
Form: peptide
Strain: cyclin D1-Cln2 strain
Sample: peptide tiling library
Setting: pooled screen
Reading: direction not given
Sequence	enrichment score
RVSGLLSWTLSRVLWL	-1.71
LKGRRLVFDN	-0.284
PLRKAKRARLCSSSSS	1.11
KRRLDLETDHQY	-0.263
CFRCLLFSFSGRSGVE	-2.22
PFSENVSAVQKLDFSD	2.18
ISRLFPPRTPGWHQLQ	-4.15
AGSAKRRLFGEDPPKE	0.489
TSSAQRRLEIPSGGAD	-0.45
IQKKLRFEDTLEFVGF	-1.04
RSLKLDGLLEEN	-0.478
LAKRALKYTD	-1.32
TRRRLFVENDSP	-0.784
SFLIEYEFLIPPSLKP	1.3

Block 6
Target: Interferon regulatory factor 7, full length, phosphomimetic (IRF7, Homo sapiens, UniProt Q92985, residues 1-503, S471D/S472D/S475D/S476D/S477D/S483D/S484D/S487D)
Method: protein-binding microarray
Form: double-stranded DNA, one strand shown
Sample: in vitro
Tested at: 2200 nM top
Setting: 60-bp whole probe
Together with: salmon DNA 0.4 mg/ml
Baseline: random background probes
Reading: higher = stronger binding
All sequences stand within: GCCTAGCAC … GTCTTGATTCGCTTGACGCTGCTG
Target sequence (chain): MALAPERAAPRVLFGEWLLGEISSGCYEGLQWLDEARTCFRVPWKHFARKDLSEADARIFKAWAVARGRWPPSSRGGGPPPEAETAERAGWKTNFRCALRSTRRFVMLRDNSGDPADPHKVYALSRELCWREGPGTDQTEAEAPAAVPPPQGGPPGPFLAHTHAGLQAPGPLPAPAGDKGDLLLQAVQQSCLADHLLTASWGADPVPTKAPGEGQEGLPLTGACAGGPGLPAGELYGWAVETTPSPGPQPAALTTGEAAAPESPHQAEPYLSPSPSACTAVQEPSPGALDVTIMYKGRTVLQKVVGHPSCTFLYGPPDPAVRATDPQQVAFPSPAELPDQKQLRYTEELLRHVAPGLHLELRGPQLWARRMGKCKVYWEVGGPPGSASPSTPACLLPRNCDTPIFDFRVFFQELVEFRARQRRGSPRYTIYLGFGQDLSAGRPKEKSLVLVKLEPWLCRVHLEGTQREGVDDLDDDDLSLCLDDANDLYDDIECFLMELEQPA
Strand	fitted relative affinity [z-score]
TTCGGACTGGGTTTCGGTTAGTGCTAG	3.9
GACGGACTTGGGTATCGGGACGTGCTA	-0.962
GACGGACTGGGTTTCGAGACGTGCTAG	0.874
TCAGCAAAAATGATTGGACTGTGCTAG	-0.729
TTAGAACTGAGTTTCGACTAGTGCTAG	1.55
GAGGAACTGGGGTATCGAGACGTGCTA	-0.632
CACGGTCTCCTTCTCCTGACGTGCTAG	0.906
TTAGGACTGGACTATCGTTTAGTGCTA	-0.157
TCACTTTTCCATTTTGTACTGTGCTAG	4.73
GACGATTTCCGGACTGGAGACGTGCTA	0.952
TTGGGACTGCTTATCCTTTAGTGCTAG	0.566
GTCGGTATCGGTATCGGGACGTGCTAG	0.971
GACGATATCAGTTTCGAGAGGTGCTAG	2.33
TGTGTCTGGAATTTTTAGAAGTGCTAG	-0.0682
GATTGGCTGACTTTGGAGATGTGCTAG	-0.0877
GACGGTTTCCATTTCCTGACGTGCTAG	5.66
TTAGATATCCGTTTCGATTAGTGCTAG	3.23
TAAGGACTGCTACTGCTTTAGTGCTAG	-0.197
TCACATTTCACAGTTAAACTGTGCTAG	1.76
TTAGGTATCGGGACTGGGCTAGTGCTA	-0.592
TTGTGTCTGGGATTTTGTCCGTGCTAG	0.291

Block 7
Target: Sal-like protein 4, full length isoform B (SALL4, Homo sapiens, UniProt Q9UJQ4-2, residues 1-616)
Method: universal PBM
Form: double-stranded DNA, one strand shown
Sample: in vitro
Tested at: not given
Setting: 8-mer, flanks averaged, mean of replicates
Reading: higher = stronger binding
Strand	E-score
CAGAACGG	-0.135
TACGTTCA	0.198
CGACACTC	-0.0765
ATCTCAAG	0.00237
CTGTATGC	0.0949
GAGAAGTA	0.0926
AACGTTGG	-0.0107
ATCGGTCG	-0.125
ATCGCTAA	0.082
CGGCAACA	-0.039
CATAAAGG	0.256
GACGAGCA	-0.0145
ACCGTCTC	-0.0605
CACCATCC	-0.1
CAGGTTTC	-0.191
GGGTAATA	0.273
CGAACTCG	-0.266
GGGACGCA	-0.19
ATCGACTA	0.0417
CGCAGCCA	-0.209
CGACCAAC	-0.134
AATCTTAC	0.256
GGCATAGA	-0.103
ACGTGCGC	-0.101

For quick reference, copied from above (block 4):
Strand	E-score
TAGCACCA	-0.194
CTTTTGAA	-0.0905
AAAGTCAG	-0.00426
CCAACGCC	0.115
ATCGGCCC	0.307
GAGGCACC	0.101
CAGACTCA	-0.191
GATATCGA	-0.237
AGTCTTAT	-0.11
CTAAGGCC	0.0929
GATCTTCC	-0.024
CGGTGCGC	0.387
AGTAGCTC	-0.0359
TGTTTTAA	-0.129
AGTATCGC	0.0619
AGTTTATC	-0.0885
CGAGTATA	-0.137
AATTAACA	-0.182
ACGAGATA	-0.235
AGAGGCAA	-0.323
CACTGCAC	-0.133
TCTGTCAA	-0.241
CCGGGACA	0.26
